Assay results pooled from the literature.
Each line is one published result; not all experiments were run side by side. Values joined by “and” are separate records of one study, mostly repeats; a detail may differ. Numbers after ± are the reported error.

CN1CCN(c2ccc(OC(F)(F)F)c(Nc3ncc4c(n3)-c3c(c(C(N)=O)nn3CCO)CC4)c2)CC1 — plasma concentration (LC-MS/MS; human, plasma; oral, 12 mg/m2, 4 h post-dose): 59.5 ng/mL and 98.5 ng/mL
O=C(O)CCCCCCCCC(=O)O — plasma concentration (healthy human volunteers, plasma; dose not given, 0 h, baseline phase, no drug): 59.7 ± 7.5 nM
Cn1cc(Nc2nccc(-c3ccc4c(c3)CN(C3COC3)CC[C@H]4NC(=O)c3cn(C(C)(C)C)nn3)n2)cn1 — plasma cell count change (human, whole blood; 50 mg twice daily, day 7; reference: pre-dose baseline): 113%
COc1cc2c(cc1OC)CN(CCc1ccc(NC(=O)c3cc(OC)c(OC)cc3NC(=O)c3cnc4ccccc4c3)cc1)CC2 — plasma concentration (human, plasma; intravenous, 5.9 mg/kg, 123 min): 2520 nM
CC(C)CCC[C@@H](C)[C@H]1CC[C@H]2[C@@H]3C(O)CC4=CC(=O)CC[C@]4(C)[C@H]3CC[C@]12C (stereo partly shown) — plasma concentration (healthy human volunteers, plasma; dose not given, 0 h, baseline phase, no drug): 64.6 ± 23.2 nM
CO[C@H]1/C=C/O[C@@]2(C)Oc3c(C)c(O)c4c(O)c(c(/C=N/N5CCN(C)CC5)c(O)c4c3C2=O)NC(=O)/C(C)=C\C=C\[C@H](C)[C@H](O)[C@@H](C)[C@@H](O)[C@@H](C)[C@H](OC(C)=O)[C@@H]1C — plasma concentration at 24 h (healthy human subjects, plasma; oral, dose not given, 24 h, first dose, with: glecaprevir and pibrentasvir single dose): 206 ng/mL
Cc1cc(C)c(CNC(=O)c2cc(Cl)c3c(c2C)O[C@@](C)([C@H]2CC[C@H](N(C)C)CC2)O3)c(=O)[nH]1 — plasma protein binding (ultracentrifugation; human, plasma; 160 min, clinically relevant concentrations): > 94%
Cc1ccc(C(=O)N(CCCN)C(c2nc3snc(C)c3c(=O)n2Cc2ccccc2)C(C)C)cc1 (stereo not shown) — plasma concentration at 24 h (human patients, plasma; intravenous, 13 mg/day, day 3 of induction course, geometric mean): 19 ng/mL
O=C(O)CCCCCCCCCCC(=O)O — plasma concentration (healthy human volunteers, plasma; oral, dose not given, 0 h, control phase, probe drugs alone): 29.8 ± 4.7 nM
COc1cc(Nc2ncc3c(n2)-c2ccc(Cl)cc2C(c2c(F)cccc2OC)=NC3)ccc1C(=O)O — plasma concentration at 12 h (human patients, plasma; oral, 40 mg twice daily, day 7, 12 h, with: pembrolizumab): 512 ng/mL

A few entries again:
COc1cc(Nc2ncc3c(n2)-c2ccc(Cl)cc2C(c2c(F)cccc2OC)=NC3)ccc1C(=O)O — plasma concentration at 12 h (human patients, plasma; oral, 40 mg twice daily, day 7, 12 h, with: pembrolizumab): 512 ng/mL
